Results pooled from the literature.
Each numbered part is a random draw from the data of one study; scales do not carry over between parts.

Study 1 — technique: universal PBM; molecule type: double-stranded DNA, one strand shown; sample: in vitro; tested at: 600 nM; direction: higher = stronger binding; quantity: E-score
Target: Sal-like protein 4, full length isoform A (SALL4, Homo sapiens, UniProt Q9UJQ4, residues 1-1053)
Chain of UniProt Q9UJQ4 (whole entry, looked up): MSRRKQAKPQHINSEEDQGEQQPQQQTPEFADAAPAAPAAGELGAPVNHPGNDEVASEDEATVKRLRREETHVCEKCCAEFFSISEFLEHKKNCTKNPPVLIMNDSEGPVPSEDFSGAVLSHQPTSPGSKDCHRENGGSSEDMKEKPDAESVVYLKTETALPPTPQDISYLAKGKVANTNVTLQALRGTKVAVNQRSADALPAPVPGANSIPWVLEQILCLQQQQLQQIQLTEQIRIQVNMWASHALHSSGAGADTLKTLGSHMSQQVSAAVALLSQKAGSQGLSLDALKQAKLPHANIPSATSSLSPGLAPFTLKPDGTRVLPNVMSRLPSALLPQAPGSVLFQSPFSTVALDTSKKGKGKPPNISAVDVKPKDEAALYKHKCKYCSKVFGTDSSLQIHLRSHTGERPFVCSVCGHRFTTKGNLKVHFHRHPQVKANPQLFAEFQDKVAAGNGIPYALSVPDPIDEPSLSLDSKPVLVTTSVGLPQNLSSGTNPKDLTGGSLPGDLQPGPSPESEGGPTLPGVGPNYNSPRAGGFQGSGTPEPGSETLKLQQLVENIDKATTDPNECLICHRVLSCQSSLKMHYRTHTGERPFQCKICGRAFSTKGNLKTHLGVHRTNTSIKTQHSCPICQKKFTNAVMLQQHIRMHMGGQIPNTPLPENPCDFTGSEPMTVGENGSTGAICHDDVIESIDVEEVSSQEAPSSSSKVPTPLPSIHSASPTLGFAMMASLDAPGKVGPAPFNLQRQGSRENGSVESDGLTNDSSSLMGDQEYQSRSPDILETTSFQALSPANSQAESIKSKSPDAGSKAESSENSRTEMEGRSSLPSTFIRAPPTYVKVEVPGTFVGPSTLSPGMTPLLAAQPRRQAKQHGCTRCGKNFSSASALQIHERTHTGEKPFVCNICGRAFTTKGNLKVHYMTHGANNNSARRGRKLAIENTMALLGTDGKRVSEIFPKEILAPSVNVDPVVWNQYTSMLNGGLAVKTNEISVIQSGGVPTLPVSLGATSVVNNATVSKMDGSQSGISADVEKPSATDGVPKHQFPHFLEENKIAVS
Notes: 8-mer, flanks averaged, mean of replicates
TGATTGCA: 0.131
CCAGAGGG: -0.343
GTAGATAA: 0.314
ACGGCCAT: -0.17
GGTAACAA: 0.217
AAACCGCG: -0.159
CCAGACGG: -0.333

Study 2 — technique: protein-binding microarray; molecule type: double-stranded DNA, one strand shown; sample: in vitro; tested at: 250 nM; notes: 60-bp whole probe; together with: salmon DNA 0.4 mg/ml; reference: random background probes; direction: higher = stronger binding; quantity: log fluorescence; constant ends, left off below: GCCTAGCAC … GTCTTGATTCGCTTGACGCTGCTG
Target: Interferon regulatory factor 5, full length, phosphomimetic (IRF5, Homo sapiens, UniProt Q13568-2, residues 1-514, K96S/S451D/S453D/S456D/S462D)
TCACATTTGGAAAATGAAACTGTGCTA: 1.11 z-score
GACGGACTGGGTTTTCGGGACGTGCTA: 0.514 z-score
GACGATTTCAGTATAGAGACGTGCTAG: 1.69 z-score
TTAGGTATCGGGCTTCGGTTAGTGCTA: 2.31 z-score
TCAACTTTGGAGATGACACTGTGCTAG: -0.0526 z-score
TTAGGTATCCTTTTCCTGTAGTGCTAG: 0.432 z-score
TTAGAACTGGTGACTGGATTAGTGCTA: -0.222 z-score
TCACCTAGCCATTATGAGACTGTGCTA: -0.422 z-score
TTAGTTCTCAGTTTCGATTAGTGCTAG: 9.45 z-score
TTAGGTATCGGGACGGGGTTAGTGCTA: 2.29 z-score
TCTGTTTTTGCTTTCCTTCAGTGCTAG: 2.39 z-score

Study 3 — technique: protein binding microarray; molecule type: double-stranded DNA, one strand shown; sample: in vitro; tested at: not given; reference: not given; direction: higher = stronger binding; quantity: E-score
Target: Histone acetyltransferase KAT6A, winged helix 1, GST fusion (KAT6A, Homo sapiens, UniProt Q92794, residues 1-85)
Notes: 8-mer, flanks averaged, mean of 2 arrays, mostly near background
Target sequence (chain): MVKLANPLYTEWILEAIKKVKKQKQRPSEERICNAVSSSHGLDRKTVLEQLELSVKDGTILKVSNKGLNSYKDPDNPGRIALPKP
TATTGGCA: -0.292
CACGCCTA: 0.121
ATCCGCCG: 0.401
TACGCGTA: 0.417
AGTAGACG: -0.0552
AAGCTTAC: -0.0727
CACGCACA: 0.0444
AGGCTACC: -0.0485
CAGCCTCG: -0.143
GCCGGCCC: 0.38
CTCGTGAA: -0.294

Further values, each from its own experiment
PhoQ, residues 284 288 289 292 302 303 TLASMF  fold induction (PhoP, residues 12 14 15 18 19 NYFTV (Escherichia coli, UniProt P23836); Sort-seq, refers to: YFP reporter; E. coli; PhoQ-PhoP variant library, together with: 10 µM Mg2+; reference: high Mg2+ state, higher = stronger signaling): 10.6

For quick reference, copied from above (study 3):
AAGCTTAC: -0.0727
CACGCACA: 0.0444
AGGCTACC: -0.0485
